Measurements of several laboratories.
Numbers after ± are the reported error.

COc1ccc(-c2oc3c(CC=C(C)C)c(O[C@@H]4O[C@H](CO)[C@@H](O)[C@H](O)[C@H]4O)cc(O)c3c(=O)c2O[C@@H]2O[C@@H](C)[C@H](O)[C@@H](O)[C@H]2O[C@@H]2O[C@@H](C)[C@H](O)[C@@H](O)[C@H]2O)cc1
IC50 (HEK293T; cell viability, MTT; 48 h): > 100 µM

CC(C)C[C@H](NC(=O)[C@H](CCCCN)NC(=O)[C@H](CC(C)C)NC(=O)[C@H](CC(C)C)NC(=O)[C@H](CCCCN)NC(=O)[C@H](CCCCN)NC(=O)[C@H](CC(C)C)NC(=O)[C@H](CC(C)C)NC(=O)[C@H](CCCCN)NC(=O)[C@H](CC(C)C)NC(=O)[C@H](CC(C)C)NC(=O)[C@H](CCCCN)NC(=O)[C@H](CCCCN)NC(=O)[C@H](CC(C)C)NC(=O)[C@@H](N)CSSC[C@H](N)C(=O)N[C@@H](CC(C)C)C(=O)N[C@@H](CCC(=O)O)C(=O)N[C@@H](CCC(=O)O)C(=O)N[C@@H](CC(C)C)C(=O)N[C@@H](CC(C)C)C(=O)N[C@@H](Cc1c[nH]cn1)C(=O)N[C@@H](Cc1c[nH]cn1)C(=O)N[C@@H](CC(C)C)C(=O)N[C@@H](CCC(=O)O)C(=O)N[C@@H](CCC(=O)O)C(=O)N[C@@H](CC(C)C)C(=O)N[C@@H](CC(C)C)C(=O)N[C@@H](Cc1c[nH]cn1)C(=O)N[C@@H](Cc1c[nH]cn1)C(N)=O)C(N)=O
IC50 (HK-2; cell growth or viability, MTT; pH 6): 13 µM

COc1cccc2c1cc([N+](=O)[O-])c1c(C(=O)O)cc3c(c12)OCO3
IC50 (HK-2; cell growth or viability, SRB; 24 h): 103 µM

N.N.O=C([O][Pt]([Cl])([Cl])[O]C(=O)c1ccc(P(c2ccccc2)c2ccccc2)cc1)c1ccc(P(c2ccccc2)c2ccccc2)cc1.[Cl][Au].[Cl][Au]
IC50 (IMR-90; cell growth or viability, resazurin; 72 h): 30.1 µM

Cc1nn(-c2ccccc2)c(O)c1C(c1cccc([N+](=O)[O-])c1)c1c(C)nn(-c2ccccc2)c1O
IC50 (HEK293; cell growth or viability, MTT; 48 h): > 40 µM

CCOP(=O)(OCC)OCCCCOC(=O)CC1=C(C)C(=Cc2ccc([S+](C)[O-])cc2)c2ccc(F)cc21 (stereo not shown)
IC50 (A549 rho0 (mitochondria-deficient); cell viability, trypan blue exclusion; 24 h): 124 µM

c1ccc(-c2cc(-c3ccc4ccccc4n3)c3c4nncn4c4nncn4c3n2)cc1
IC50 (RPE-1; cell growth or viability, MTT; 48 h): 20.9 µM

CC(C)C[C@H](NC(=O)[C@H](C)NC(=O)[C@H](CCCCN)NC(=O)[C@H](C)NC(=O)[C@H](C)NC(=O)CNC(=O)[C@H](CCCCN)NC(=O)[C@H](CC(C)C)NC(=O)[C@H](CC(C)C)NC(=O)[C@H](CC(=O)O)NC(=O)[C@H](CCCCN)NC(=O)[C@H](Cc1ccccc1)NC(=O)CN)C(=O)N[C@H](C(=O)N[C@@H](CCCCN)C(=O)N[C@H](C(=O)N[C@H](C(=O)N[C@@H](CC(C)C)C(=O)N[C@@H](Cc1ccccc1)C(N)=O)C(C)C)[C@@H](C)O)C(C)C
IC50 (U87; cell proliferation, CCK-8; 48 h): 9.25 µM

CC(=O)N[C@@H](Cc1c[nH]c2ccccc12)C(=O)N[C@@H](CCC(=O)O)C(=O)N[C@@H](Cc1c[nH]cn1)C(=O)N[C@@H](CC(=O)O)C(=O)COC(=O)c1c(C)cccc1C
IC50 (EA.hy926; pyroptosis, inhibitor, propidium iodide uptake; together with: 20 µM Val-boroPro): ~2.5 µM

CSC(=NNC(=O)c1ccc([N+](=O)[O-])cc1)SC
IC50 (A549 or HCT-116; cytotoxicity, MTT; approximate value): ~100 µM

CC(C)C[C@H](NC(=O)[C@H](CC(C)C)NC(=O)[C@H](Cc1c[nH]cn1)NC(=O)[C@H](CCC(=O)O)NC(=O)[C@H](CC(C)C)NC(=O)[C@H](Cc1c[nH]cn1)NC(=O)[C@H](CCC(=O)O)NC(=O)[C@H](CC(C)C)NC(=O)[C@H](CC(C)C)NC(=O)[C@H](Cc1c[nH]cn1)NC(=O)[C@H](CCC(=O)O)NC(=O)[C@@H](N)CC(C)C)C(=O)N[C@@H](CCC(=O)O)C(=O)N[C@@H](Cc1c[nH]cn1)C(N)=O
IC50 (HK-2; cell growth or viability, MTT; pH 7.4): > 100 µM

CCN(CC)C1=[S+][Au-]2([S]1)[c]1ccccc1-c1cccc[c]12
IC50 (BT-333 glioblastoma; MTT; 72 h): > 100 µM

N=C(N)NCCC[C@H](NC(=O)[C@H](CCCNC(=N)N)NC(=O)[C@@H]1CCCN1C(=O)[C@H](CCCNC(=N)N)NC(=O)[C@H](CCCNC(=N)N)NC(=O)[C@H](CCCNC(=N)N)NC(=O)[C@H](Cc1c[nH]c2ccccc12)NC(=O)[C@H](CCCNC(=N)N)NC(=O)[C@H](CCCNC(=N)N)NC(=O)[C@H](CCCNC(=N)N)NC(=O)[C@H](CCCNC(=N)N)NC(=O)[C@H](CCCNC(=N)N)NC(=O)[C@H](Cc1c[nH]c2ccccc12)NC(=O)[C@H](CCCNC(=N)N)NC(=O)[C@H](CCCNC(=N)N)NC(=O)[C@H](Cc1ccc(O)cc1)NC(=O)[C@H](CCCNC(=N)N)NC(=O)[C@H](CCCNC(=N)N)NC(=O)[C@H](CCCNC(=N)N)NC(=O)[C@@H](N)Cc1c[nH]c2ccccc12)C(N)=O
IC50 (BT-20; cell viability, CellTiter-Blue; 24 h, serum-free medium): 4.2 ± 2.2 µM

Cc1cc(C)c(-n2ccn(-c3c(C)cc(C)cc3C)c2=[Se])c(C)c1.[Cl][Au]
IC50 (A2780; cell growth or viability; 72 h, 3D culture): 7.2 µM

CC(C)C[C@H](NC(=O)[C@H](CCCCN)NC(=O)[C@H](CC(C)C)NC(=O)[C@H](CC(C)C)NC(=O)[C@H](CCCCN)NC(=O)[C@H](CCCCN)NC(=O)[C@H](CC(C)C)NC(=O)[C@H](CC(C)C)NC(=O)[C@H](CCCCN)NC(=O)[C@H](CC(C)C)NC(=O)[C@H](CC(C)C)NC(=O)[C@H](CCCCN)NC(=O)[C@H](CCCCN)NC(=O)[C@@H](N)CC(C)C)C(N)=O
IC50 (HK-2; cell growth or viability, MTT; pH 6): 9 µM

NC(=O)N/N=C/c1ccc(OCc2cccc(F)c2)cc1
IC50 (IMR-32; cell growth or viability, MTT; 24 h): 14.3 µg/mL

C=C(C)CC(OC)C(O)C(=O)NC(OC)C1CC(=NOC)C(C)(C)C(CC(O)C(C)C2Cc3c(C)c(O)cc(O)c3C(=O)O2)O1 (single isomer, unassigned; (+))
IC50 (IMR-90; cell growth or viability): 0.046 µM

O=C(Cc1ccc2ccccc2c1)N[C@H](Cc1ccccc1)C(=O)N[C@H](Cc1ccccc1)C(=O)N[C@H](Cc1ccc(O)cc1)C(=O)N[C@H](Cc1ccc(O)cc1)C(=O)O
IC50 (HS5; cell growth or viability, MTT): > 500 µg/mL

C1=CCCC=CCC1.C1=CCCC=CCC1.O=C(N=P12CN3CN(CN(C3)C1)C2)c1cccc[c]1[Pt+].O=C(N=P12CN3CN(CN(C3)C1)C2)c1cccc[c]1[Pt+].[Cl][Hg-]([Cl])[Cl].[Cl][Hg-]([Cl])[Cl].[Cl][Hg][Cl].[Cl][Hg][Cl]
IC50 (Jurkat; cell viability, MTT; 24 h): 2.13 ± 0.24 µM

C[C@H]1[C@H](OCCc2ccc(O)cc2)O[C@@H]2O[C@@]3(C)CC[C@H]4[C@H](C)CC[C@@H]1[C@@]24OO3
IC50 (RPMI-7951; cell growth or viability, MTT; 24 h): 0.33 µM

C#CCN[C@@H]1C=C[C@]2(O[C@H]([C@@H](CC)C(=O)[C@@H](C)[C@@H](O)[C@H](C)[C@@H]3O[C@@H]([C@@H](CC)C(=O)O)CC[C@@H]3C)[C@@H](C)C[C@H]2C)O[C@@]12CC[C@@](C)([C@H]1CC[C@](O)(CC)[C@H](C)O1)O2
IC50 (HMLER CD24high/CD44low; cell viability, CellTiter-Blue; 72 h): 1.75 ± 0.06 µM

Cc1cc(C)c(N2CCN(c3c(C)cc(C)cc3C)C2=[Se])c(C)c1.[Cl][Ag]
IC50 (A2780; cell growth or viability; 72 h, 3D culture): 21.3 µM

CC[C@H](C)[C@@H]1NC(=O)[C@H](CCCNC(=N)N)NC(=O)C[C@@H](c2cccc3ccccc23)NC(=O)[C@@H]2CSSC[C@H](NC(=O)C[C@@H](c3cccc4ccccc34)NC(=O)[C@H](CCCNC(=N)N)NC(=O)[C@@H]3CCCN3C(=O)[C@@H]3CCCN3C1=O)C(=O)N[C@@H](Cc1ccccc1)C(=O)N1CCC[C@H]1C(=O)N[C@@H](CC(=O)O)C(=O)N[C@@H](CC(=O)O)C(=O)N[C@@H](Cc1ccccc1)C(=O)N2
IC50 (MCF7 (HER2-); cell growth; 72 h): > 20 µM

C=C(C)CC(OC)C(O)C(=O)NC(OC)C1CC(OC(C)=O)C(C)(C)C(CC(O)C(C)C2Cc3c(C)c(O)cc(O)c3C(=O)O2)O1 (single isomer, unassigned; (+))
IC50 (H522-T1; cell growth or viability): 0.0007 µM

[Cl][Au].[Se]=c1n(C2CCCCC2)ccn1C1CCCCC1
IC50 (A2780; cell growth or viability; 72 h, 3D culture): 2.2 µM

O=C(Cc1ccc2ccccc2c1)N[C@H](Cc1ccc(OP(=O)(O)O)cc1)C(=O)N[C@H](Cc1ccccc1)C(=O)N[C@H](Cc1ccccc1)C(=O)N[C@H](Cc1ccc(OP(=O)(O)O)cc1)C(=O)O
IC50 (HS5; cell growth or viability, MTT): > 483 µg/mL

C=C(C)CC(OC)C(O)C(=O)NC(OC)C1CC(OC(=O)c2ccccc2)C(C)(C)C(CC(O)C(C)C2Cc3c(C)c(O)cc(O)c3C(=O)O2)O1 (single isomer, unassigned; (-))
IC50 (H522-T1; cell growth or viability): 0.0054 µM

CC(C)C[C@H](NC(=O)[C@H](CC(C)C)NC(=O)[C@H](CCC(=O)O)NC(=O)[C@H](CCC(=O)O)NC(=O)[C@H](CC(C)C)NC(=O)[C@H](Cc1c[nH]cn1)NC(=O)[C@H](Cc1c[nH]cn1)NC(=O)[C@H](CC(C)C)NC(=O)[C@H](CC(C)C)NC(=O)[C@H](CCC(=O)O)NC(=O)[C@H](CCC(=O)O)NC(=O)[C@@H](N)CC(C)C)C(=O)N[C@@H](Cc1c[nH]cn1)C(=O)N[C@@H](Cc1c[nH]cn1)C(N)=O
IC50 (RG; cell viability, MTT; 0.5 h, pH 7.4): > 100 µM
